Published values pooled from the literature.
Each numbered part is a random draw from the data of one study; scales do not carry over between parts.

Series 1
Target: TAR DNA-binding protein 43, full length, His tag (TARDBP, Homo sapiens, UniProt Q13148, residues 1-414)
Method: RNA Bind-n-Seq
Form: RNA
Medium: in vitro
Tested at: 20 nM
Setting: 6-mer, flanks averaged, single round
With: 150 mM KCl
Baseline: input library
Direction: higher = stronger binding
Sequence | 6-mer enrichment (R)
GGGUGU | 3.3
UAUUCG | 0.591
UGACAC | 0.785
AAGACC | 0.656
UCCCUC | 0.594
GGUCUU | 0.793
UGGCUC | 0.75
ACGGAA | 0.854
AGUGAA | 0.961
ACAGGA | 0.941
CCAUUG | 0.665
UGUACU | 0.609
CCCACC | 0.628
GGGGUC | 3.68
GCGGAU | 1.39
CGCUAG | 0.83

Series 2
Target: RING finger protein unkempt homolog, zinc fingers 1-6, SBP tag (UNK, Homo sapiens, UniProt Q9C0B0, residues 30-357)
UniProt Q9C0B0, sequence (30-357, looked up): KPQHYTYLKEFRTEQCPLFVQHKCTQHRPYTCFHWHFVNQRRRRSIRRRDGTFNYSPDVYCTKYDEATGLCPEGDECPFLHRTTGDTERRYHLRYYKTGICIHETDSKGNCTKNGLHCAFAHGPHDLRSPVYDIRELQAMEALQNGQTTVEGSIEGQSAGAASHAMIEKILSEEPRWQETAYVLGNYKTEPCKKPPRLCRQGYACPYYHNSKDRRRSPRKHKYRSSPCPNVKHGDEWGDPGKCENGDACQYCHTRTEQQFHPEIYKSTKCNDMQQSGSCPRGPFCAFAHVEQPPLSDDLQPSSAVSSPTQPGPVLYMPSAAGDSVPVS
Method: RNA Bind-n-Seq
Form: RNA
Medium: in vitro
Tested at: 100 nM
Setting: RNA with constant flanks, vertebrate orthologous sites, ends assumed
Baseline: input RNA pool
Direction: higher = stronger binding
All sequences stand within: GGGAGUUCUACAGUCCGACGAUC … CAACAGAGGAUUGAGCAUCA
Sequence | bound/input enrichment [ratio]
AGAGGGGCGAUAUUGAAUAGUAUUAAUAUUCUUGUCUUCCUUUACCUUUUGUCCCCUAAUACUUAGUCUUCUUAAAAUUUCAAACUUCACUGCACUUGGAAUUAGUAAUUCCAAUUUUCA | 1.1
GUGUUUUGUACAGGCCAUUCUCUGUACUAGUUUGUUGUGGUUAUAAAACAAUUAGCAGAAUAGCCUACAUUUGUAUUUAUUUUCUAUUCCAUACUUCUGCCCAUGUUGUUUUCUCUCAGU | 1.74
CAGUGCCCUGGGCCGGGACAGAUUUUUUUUUAACGUCUUGAAACUUAAACUCUGUGCUUGUAGGAUACUGUAACCUUUUUGUCUUUUUUUUUUUUUUUUUUUUUUUUUUAAACCUCCACC | 6.11
CCCCGAUUUUAGAUGUGAUAUCUUGGCUUUCAUUCCAGUUUGUUUUUGUCUUUUCUUGUUUAGAUACCAAUCUUUUAAAUUCUUGCAUUUUAGUAAGAAAGCUACCUUUUUAUGGAUGUU | 1.62
CCGAAAGGCCAAAUCCCCUCCUCCCUUCUCCUGCUUCUGCCAACCGGAAGCACAGAAAACUAGAACUUCAUUGAUUUUGUUUUUUAAAAGAUACACUGAUUUAACAUCUGAUAGGAAUGC | 0.657
CAGGGAUGGCCCUAAUCCCACCUCUGUUUAUUCUGUAAACUACAACCUGUAAAUAAUGUUUAGCAUUCCUAUUGUAACAAAAUUAAUUUUUAUGAAAUAAAUUAUAUUUCCUAGUCUAAU | 1.29
UCCUCAACUUAUUCUAGCUUGUGGUCCUUCAAAAUUGGAUCAUACAUUAGUGCUAGAUUCUAGAAAUUUUCACUUCUCUUUCCACUGAUCAGAGAAACAGAUGUUAGAAACAGAAAUACA | 1.71
GUUGUGUUGUGUACAGGGCUUCAUUCUCUGUACAAGUCUGUGGUUAUAAAAUUAGUAAAACAGCUUACAUUUGUAUUUAUUUUCUAGUCCAUACUUCUGUACCCCCAUUUUUUUCUCCCU | 0.969
AAUCAGUAGAAUUACAUAAUACUAAAGUUGCAGUUGAAAGGAUAUCCAAGUAUGUGUUGGUAGUUACUAAAGAAGUAUAGCUGGUAUUGCCUUGUAUUUAUAGCCCUUGUUUCAGGUUUC | 0.477
AAGAUGGUGGUUGUACAUUACUUCAUUUAGAAAAUAUAAAGAUUCAUUUUGUUUUGAAGCUAGGUGUUAAACUGGAAUAGCUAUUAUACCCCAGAGAACGUGGCAAUUGUGCCCUUCCUU | 1.22
ACUGCUGUUAAUGCACUGUUUCAGCCCUUUUAUGAGGUUAGUGUAAUCUAGGAGAUUUUAUAGUUUUAUUUUAAUGAAAACCGGAUUGAUGCACAGUAGUGGGAAGUACAUUGUCUUUUA | 1.24

Series 3
Target: RNA binding protein fox-1 homolog 2, RRM domain, GST-SBP tag (RBFOX2, Homo sapiens, UniProt O43251-10, residues 100-194)
Method: RNA Bind-n-Seq
Form: RNA
Medium: in vitro
Tested at: 365 nM
Setting: natural RNA segment, single round, ends assumed
Baseline: no-protein control
Direction: higher = stronger binding
All sequences stand within: GGGAGUUCUACAGUCCGACGAUC … UGGAAUUCUCGGGUGCCAA
Target sequence (chain): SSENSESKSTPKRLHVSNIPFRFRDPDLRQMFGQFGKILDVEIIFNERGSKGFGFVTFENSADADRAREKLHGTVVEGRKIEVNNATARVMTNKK
Sequence | RBNS enrichment (R)
CUGCCCUCGCUGCAGACAGCAGCCGGAGGCUAUUUUGUAGUGCAGAGAUGACUCACUCACUCCGUGUGUUCUACAGUGCUGAGGUGGAUGACCUGGCCUACAGCAAAGGA | 0.406
GGCUACUUCCAAGGGCAGCCAGCAGGCCUGGACAGAGGUCUUGAAAGCCCUUGUCUUCUCUUCCCCCCCACCCCACUAGGCCUGGUUAACCUUCCGUUUCCAGCUUCUCC | 0.512
GUGCAGGCAGCUUGGAGUGCAGGCUGUGUUGCUGGGAGUGCGCUGGCUGCUUAGAAACCACGAGACACCACCUCACUUUCCUCUGGCCUCACUGUUUCUGCCAGUCACAU | 0.329
UUAAUGAACUAUUGUUAAUUCUUCCUAUUUUAAUGAAUGACAUUGAACUGAAUUUUUUGUCUGUUAAAUGAACUUGAUAGCUAAUAAAAAGACAACUAGCCAUCAAAAUC | 0.589
AGGCUGCAGCCCAGAAACUCUACCUCAUCCACACUGGUGCAGGGAGCCCUCCUUGAACUGACCUUUGAUUGGUUUCUGCUUCAACUACCAAAAUGUUAUCUCCACUUCCC | 0.302
UUUACCUCUGGGCUCAAUAAGGGCAUCUGUGCAGAAAUUUGGAAGCCAUUUAGAAAAUCUUUUGGAUUUUCCUGUGGUUUAUGGCAAUAUGAAUGGAGCUUAUUACUGGG | 0.424
ACUCCGUAGAAAGCACUGGAUUUUGUGACAUGUAUAUUAAAAACAGGGCAUUUCAAAGUAAUUUUGCCAAAAUUGUCAUAACUGAAUUUUUGCUGUGUGGACUUUCUGAU | 0.576
AGCUUACCUCUGCGAACUUCUAUCUGGUAUUGAAUCAGUUUCAGAAACACAGACAGAUCCAAGGAAAUGUCUCUUUAUAAUGUUCUUAGGAUGGACUAGACCCAUAAAUG | 0.444
AGCCCUGCUCCUUGCCUUUUGCAUUGUCAUUCCUCCCCUCUGUCCAGGUCAUUCCUUGGCUAAGCCUUCGAGCUCCCUUAUACCCAUGCUAUCUGGUUUGACAAUUCCAU | 0.441
AAGAUAAAUUGGGGCCUUGUAAAAGGCCAGGGUAAAAUGUCUCAGGCAAGCAAAAGAUUGUCCCCUUCUGCAUAUGGGUAAAACUGAGACGUCCCCGUGAGCCCGAGGCU | 0.914
CCUGUUUUGUGUCAGUUUGGUGUGAGGUGACAUGGAAAAAUGUUGAUGAUUGUAGAUUAAGCUGAAACAUAUAAUGAGAGCAAUGAGAACAAGUUUGUUUUGCCUGAUAC | 2.87
CUCUGUGUAGUCAUUCCUAAGCCCCACAGAGGGAGCGCCAACAUUUCUCACUGUGCUGCUGAGGUUCUGACCUGGUGUGUCUGACAUUGCAUCAGGCUUUGCAGAACAAA | 0.791

Series 4
Target: Prothrombin, mature alpha-thrombin (F2, Homo sapiens, UniProt P00734)
Method: aptamer microarray, sandwich
Form: DNA with 2'F-ANA
Medium: in vitro
Tested at: 200 nM
Setting: whole 15-mer aptamer, many near background
With: Cy3 exosite-II aptamer, 400 nM
Direction: higher = stronger binding
Sequence: GGTTGGTGTGGTTGG
Modification | mean fluorescence intensity [a.u.]
2'F-ANA at 5 8 9 13 14 | 47.1
2'F-ANA at 1 2 3 9 10 11 14 | 59.7
2'F-ANA at 1 4 12 14 15 | 62.1
2'F-ANA at 1 2 4 5 6 7 8 9 12 13 14 | 48
2'F-ANA at 2 4 6 7 14 | 109
2'F-ANA at 1 4 6 7 8 11 15 | 135
2'F-ANA at 1 5 7 8 9 13 15 | 53.3
2'F-ANA at 2 3 5 10 13 15 | 50.7
2'F-ANA at 3 4 7 9 10 12 15 | 316
2'F-ANA at 2 3 5 10 12 14 | 68.1
2'F-ANA at 2 3 4 5 6 7 8 9 10 11 15 | 48.1
2'F-ANA at 1 2 3 4 5 6 8 10 11 12 14 | 60.1
2'F-ANA at 1 2 3 5 6 7 11 | 55.7
2'F-ANA at 3 4 5 13 14 | 62.9
2'F-ANA at 2 5 7 8 9 10 11 14 | 66.5
2'F-ANA at 4 5 6 8 9 10 15 | 75.2
2'F-ANA at 2 3 5 6 11 12 14 15 | 84.3
2'F-ANA at 1 3 4 8 11 12 13 14 15 | 89.4
2'F-ANA at 3 6 8 12 13 15 | 1000
2'F-ANA at 2 3 4 5 6 11 13 14 15 | 71.3
2'F-ANA at 1 2 3 4 7 8 10 11 12 13 14 | 64.5

Series 5
Target: Histone acetyltransferase KAT6A, both winged helices, GST fusion (KAT6A, Homo sapiens, UniProt Q92794, residues 1-181)
Method: protein binding microarray
Form: double-stranded DNA, one strand shown
Medium: in vitro
Tested at: not given
Setting: 8-mer, flanks averaged, mean of 2 arrays, mostly near background
Baseline: not given
Direction: higher = stronger binding
Construct (chain): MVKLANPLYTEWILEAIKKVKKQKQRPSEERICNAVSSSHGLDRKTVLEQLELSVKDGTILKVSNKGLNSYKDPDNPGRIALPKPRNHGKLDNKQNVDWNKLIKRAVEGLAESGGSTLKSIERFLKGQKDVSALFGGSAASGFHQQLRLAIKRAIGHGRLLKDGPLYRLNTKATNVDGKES
Sequence | E-score
AACTACCG | 0.118
AAACGGGT | 0.282
ACCTGTCC | -0.0858
AAACGGTT | 0.0976
CGAGCTCG | 0.0614
AGCTTCAC | -0.124
GAGACAGA | -0.116
CCACTTCA | -0.195
AGACACTG | -0.143
AACGGCCA | 0.192
TGGATCAA | -0.144
GTTTATGA | -0.0075
CGGCGTAC | 0.291
CATTCCAG | -0.241
ATTGTAGA | -0.0884
ATATCTCG | -0.088
ACTACGGG | 0.162
GGGGTCAC | -0.0408
CGTACGGC | 0.318
CAGTGACC | -0.131
AGGCGAAT | -0.0623

A few entries again (series 4):
Modification | mean fluorescence intensity [a.u.]
2'F-ANA at 2 3 5 6 11 12 14 15 | 84.3
2'F-ANA at 3 6 8 12 13 15 | 1000
2'F-ANA at 3 4 5 13 14 | 62.9
2'F-ANA at 1 2 3 4 7 8 10 11 12 13 14 | 64.5
2'F-ANA at 1 3 4 8 11 12 13 14 15 | 89.4
2'F-ANA at 4 5 6 8 9 10 15 | 75.2
2'F-ANA at 1 4 6 7 8 11 15 | 135
2'F-ANA at 2 5 7 8 9 10 11 14 | 66.5
2'F-ANA at 2 3 4 5 6 7 8 9 10 11 15 | 48.1
2'F-ANA at 2 3 5 10 13 15 | 50.7
2'F-ANA at 1 4 12 14 15 | 62.1
2'F-ANA at 1 2 3 5 6 7 11 | 55.7
